# Assay results collected from several papers.
# Each numbered part is a random draw from the data of one study; scales do not carry over between parts.

# Study 1 — technique: RNA Bind-n-Seq; form: RNA; sample: in vitro; tested at: not given; relative to: input RNA pool; reading: higher = stronger binding
# Target: RING finger protein unkempt homolog, zinc fingers 1-6, GST-SBP tag (UNK, Homo sapiens, UniProt Q9C0B0, residues 30-357)
# Setting: RNA with constant flanks, human-mouse chimeric sites, ends assumed
# Shared flanks, not repeated: GGGAGUUCUACAGUCCGACGAUC … CAACAGAGGAUUGAGCAUCA
# Construct (chain): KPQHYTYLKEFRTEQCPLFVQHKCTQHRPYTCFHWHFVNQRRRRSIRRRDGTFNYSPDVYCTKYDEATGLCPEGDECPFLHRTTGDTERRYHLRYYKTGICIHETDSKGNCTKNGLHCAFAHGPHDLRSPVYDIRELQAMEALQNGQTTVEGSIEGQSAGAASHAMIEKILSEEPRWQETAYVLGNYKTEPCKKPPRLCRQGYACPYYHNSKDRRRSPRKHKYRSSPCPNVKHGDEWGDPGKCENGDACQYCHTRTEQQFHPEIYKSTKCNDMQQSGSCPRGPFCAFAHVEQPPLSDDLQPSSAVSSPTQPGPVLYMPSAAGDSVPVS
Strand,bound/input enrichment
CACACACUCUUCUGUGGGACCCUCAUCCUGCAGGCCCGGGCCUAUGUGGGACCGCACGUCCUGGCAGUGGUGACCCGCACAGGGUUCUGCACGGCAAAAGGGGGCCUGGUGAGCUCCAUC,0.0888 ratio
GAAUCCUACUCAGGCGGAUUUUGCAACACCAAGCUCACAGCAGCAGCAUCUUAGUCACAGUAGGGUAGCUUUAGGGCUCUGUGGCCAGGGUUUUAUUCAUGUGCAGGUUUGGAAAAUGUA,0.508 ratio
UUAAUCCCCUUUACUGCUCCACCACUGCUCAUGGUAAUAACAAAGUCUUAUAUCCCCGUCCUAGCUUUUACUCAGAUGGCUUAUGGAGCCGGUUUCCUAGCUUUCUUGGGAGGGAUCAGA,0.571 ratio
AGUGUGCAGGAAUUCAUGACCUUUACAAGUCAACUGAUUGUGGAACGCUCAUCGAAAGGCAGCAGAGCUUCUGUCAAAGAACAAGAGUAUCUGUGCCAUGUCUACGUCCGGAGCGACAGU,0.0611 ratio
UCUUAACUUAUUCAUUUAACUUAUUUUUAGCACUUAGUAAAUAUUGUUAGUCUUAGACAAUAGCUCACAUUUUUUGAGAAGCAUGCCCUCCCUAUCCAUUUGUCUUAUAACAUGACCCAG,263 ratio
UUGAAAACUGAUUCAAGUAAGUUUGAGUAUCACAAUGUUAGCUUUCUAAUUCCAUAAAAGUACUUGGUUUUUACAGUAACCCCACAUACAUCACCCCAGCGCCAUUUGUAAAGAGCAACU,0.837 ratio
AAUUUCCGCAACUGUUUUUUAGACAUUCACAUCAGACUUACAGAGCAUUGGGCCUCUUUCUAGGUUUGUGUUAUUUCUCAGCUAUGGAUAUGAUCAAAUGAGAACACUGCUUAACUAAUG,0.296 ratio
AUAAAGGCUAUGUUGAGUGGCCCAGGUCAGUUUGCUGAGAAUGAAACCAACGAGGUCAAUUUUAGAGAGAUCCCCUCACAUGUGCUAUCAAAAGUGUGCAUGUAUUUUACCUACAAGGUC,0.158 ratio

# Study 2 — technique: RNA Bind-n-Seq; form: RNA; sample: in vitro; tested at: 365 nM; relative to: no-protein control; reading: higher = stronger binding
# Target: RNA binding protein fox-1 homolog 2, RRM domain, GST-SBP tag (RBFOX2, Homo sapiens, UniProt O43251-10, residues 100-194)
# Setting: natural RNA segment, single round, ends assumed
# Shared flanks, not repeated: GGGAGUUCUACAGUCCGACGAUC … UGGAAUUCUCGGGUGCCAA
# Target sequence (chain): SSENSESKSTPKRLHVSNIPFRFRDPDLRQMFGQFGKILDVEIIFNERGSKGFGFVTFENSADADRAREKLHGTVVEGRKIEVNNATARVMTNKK
Strand,RBNS enrichment (R)
AAAGAACAGUUCACAUGAACAAAAAAGAGAAAAACAAACAAACCACAAAACCCACAACCCAGCACAAAGUCGACAAUGGAUUUUGUUUCUUUGAUUUAUUUUGCCAAUGG,0.635
AAAACUAAUCAAUGGCACACAGGGCCAGGUGUGGCCCUGUGAGGCAAAGGAUAAUGUCACCUCAGGACCAAGGUGGAAACUUACAGCUGAAUCCAGGGCUUACUAAGUAG,0.229
UUUGAUGCUAGAAAACACAUAUUUUUAAAUGGAAGAAAAAUAAAAAGGCAUUCCCCCUUCAUCCCCCUACCUUAAACAUAUAAUAUUUUAAAGGUCAAAAAAGCAAUCCA,0.436
UUUCCCAAGAGCAUGAUAGAAAGAUCCCUGGACUCUGCUGUUACAAGCGUGGACUCUUGUCUCACCUCAUCAAUUAUUCUGUGAUGUUGAAUCAGGAUUCUAAAGGCUAG,43.7
UUUAGAGAUGGGAAACAAGCAAGAGCUUGACUUGCCUCCCAUCCCUCAGCCUGUCUGUGGCAGAGCCUGCACCAAAACCCAGAGCUUCUUCCCUCCGUGAGGGCCACGCU,0.298
GGGAUAUUGCCUUAUUUGUCUGUAAAAAAUGGAGCUCAGUAACAUAACUGCUUCUUGGAGCUUUGGAAUAUUUUAUCCUGUAUUCUUGUUUGAAUUCCUCCUCUAUUUAA,0.558
CUAUUUCAUUGGAUCAGGAAAUCAUCCACUUGCCAACCAGGCUCCAGUACUGGGAAACAUGGAAUGUGGCAAACUGUCCCACACUCCAAGCCAUUCUCCAAGGGGGCCUG,0.258
GAGGUUACAUGUGCCAUGAGAACCCACUCUACACCAUAGUGCUGGUGCCUCAGUGUUGGCCAAACUCUGGAGUCACUGACUGGUUUGACUUUCAUGUGGUAAAUAUGCAU,0.481

# Study 3 — technique: protein binding microarray; form: double-stranded DNA, one strand shown; sample: in vitro; tested at: not given; relative to: not given; reading: higher = stronger binding
# Target: Histone acetyltransferase KAT6A, winged helix 2, GST fusion (KAT6A, Homo sapiens, UniProt Q92794, residues 85-181)
# Setting: 8-mer, flanks averaged, mean of 2 arrays, mostly near background
# Construct (chain): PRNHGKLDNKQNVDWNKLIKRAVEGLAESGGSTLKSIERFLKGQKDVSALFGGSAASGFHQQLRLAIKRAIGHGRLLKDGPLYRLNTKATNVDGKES
Strand,E-score
ATATGGTA,-0.101
CAGACCTC,0.0422
AAATATCC,0.205
AGCAACCA,0.192
AACAGCCG,-0.0818
CACGACAG,0.0183
AACACAAA,-0.0306
AGGCTGGA,-0.0441
GGCCATTA,-0.0252
AAGGTTGC,-0.0473
AATGTGTC,-0.199
ATCGAGAA,-0.000945
GACATCTA,0.072
AGCGTTAC,-0.184
ACATTATC,-0.0617
CAGTGGTC,-0.0667
CGATTACA,0.0761
GTGATGTA,-0.186
AATCGAGT,-0.168
CCTACGTA,-0.0491
GTGTGAGA,0.00291
CGGGACTC,-0.0366
AGACGGTC,-0.0599

# Study 4 — technique: protein-binding microarray; form: double-stranded DNA, one strand shown; sample: in vitro; tested at: 250 nM; setting: 60-bp whole probe; added: salmon DNA 0.4 mg/ml; relative to: random background probes; reading: higher = stronger binding; shared flanks, not repeated: GCCTAGCAC … GTCTTGATTCGCTTGACGCTGCTG
# Target: Interferon regulatory factor 7, full length, phosphomimetic (IRF7, Homo sapiens, UniProt Q92985, residues 1-503, S101K/S471D/S472D/S475D/S476D/S477D/S483D/S484D/S487D)
# Residues (chain): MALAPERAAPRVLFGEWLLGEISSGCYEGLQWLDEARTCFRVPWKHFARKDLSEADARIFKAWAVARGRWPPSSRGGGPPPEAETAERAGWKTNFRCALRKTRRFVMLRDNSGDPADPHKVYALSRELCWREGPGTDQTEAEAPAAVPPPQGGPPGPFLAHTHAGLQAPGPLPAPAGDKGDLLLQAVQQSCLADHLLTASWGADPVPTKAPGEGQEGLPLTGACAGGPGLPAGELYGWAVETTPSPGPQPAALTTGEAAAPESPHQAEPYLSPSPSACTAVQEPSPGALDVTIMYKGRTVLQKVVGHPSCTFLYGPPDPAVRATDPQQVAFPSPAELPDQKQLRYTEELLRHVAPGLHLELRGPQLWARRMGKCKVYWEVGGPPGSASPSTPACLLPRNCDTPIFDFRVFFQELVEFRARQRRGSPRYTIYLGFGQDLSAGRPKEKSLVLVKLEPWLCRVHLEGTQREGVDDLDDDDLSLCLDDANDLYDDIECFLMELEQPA
Strand,log fluorescence [z-score]
TGGAATTTCCCTCTCCCCTCGTGCTAG,0.546
GACAATCTCAGTCTCGAGACGTGCTAG,0.548
TTAGGACTGCTTTTCCTATAGTGCTAG,1.42
GACGATATCAGTGTCGAGACGTGCTAG,-0.368
TCAAGTTTCCATTTTCTACTGTGCTAG,6.86
TCATGTTTCCTTCCTCTACTGTGCTAG,1.95
TTCGGACTGCTTTTCCTTTAGTGCTAG,0.565
GACGATTTCTGACTGGAGACGTGCTAG,-0.0344
TCCATTTTTACCCTCCTTACGTGCTAG,1.09
TTAGGTTTCGACGATCGGTTAGTGCTA,1.32
TTAGGACTGGGGACTGGTTTAGTGCTA,0.0192
TCACCTACAGGTTCTCTGACTGTGCTA,-0.706
GACCATCTCAGTCTCGAGACGTGCTAG,0.529
TTAGGTCTCCTTTGCCTTTAGTGCTAG,0.438
GACGATATCAGACTGGAGTCGTGCTAG,-0.289
TCAGGACTCAGGTCTCCCACTGTGCTA,-0.0892
TTAGGTATCCTCTTCCTTTAGTGCTAG,0.265
GACGATTTGAGTATCGAGACGTGCTAG,0.209
TTAGGTTTCGGTCTCGATTAGTGCTAG,8.3

# Study 5 — technique: universal PBM; form: double-stranded DNA, one strand shown; sample: in vitro; tested at: 600 nM; reading: higher = stronger binding
# Target: Sal-like protein 4, full length isoform A (SALL4, Homo sapiens, UniProt Q9UJQ4, residues 1-1053)
# UniProt Q9UJQ4, sequence (whole entry, looked up): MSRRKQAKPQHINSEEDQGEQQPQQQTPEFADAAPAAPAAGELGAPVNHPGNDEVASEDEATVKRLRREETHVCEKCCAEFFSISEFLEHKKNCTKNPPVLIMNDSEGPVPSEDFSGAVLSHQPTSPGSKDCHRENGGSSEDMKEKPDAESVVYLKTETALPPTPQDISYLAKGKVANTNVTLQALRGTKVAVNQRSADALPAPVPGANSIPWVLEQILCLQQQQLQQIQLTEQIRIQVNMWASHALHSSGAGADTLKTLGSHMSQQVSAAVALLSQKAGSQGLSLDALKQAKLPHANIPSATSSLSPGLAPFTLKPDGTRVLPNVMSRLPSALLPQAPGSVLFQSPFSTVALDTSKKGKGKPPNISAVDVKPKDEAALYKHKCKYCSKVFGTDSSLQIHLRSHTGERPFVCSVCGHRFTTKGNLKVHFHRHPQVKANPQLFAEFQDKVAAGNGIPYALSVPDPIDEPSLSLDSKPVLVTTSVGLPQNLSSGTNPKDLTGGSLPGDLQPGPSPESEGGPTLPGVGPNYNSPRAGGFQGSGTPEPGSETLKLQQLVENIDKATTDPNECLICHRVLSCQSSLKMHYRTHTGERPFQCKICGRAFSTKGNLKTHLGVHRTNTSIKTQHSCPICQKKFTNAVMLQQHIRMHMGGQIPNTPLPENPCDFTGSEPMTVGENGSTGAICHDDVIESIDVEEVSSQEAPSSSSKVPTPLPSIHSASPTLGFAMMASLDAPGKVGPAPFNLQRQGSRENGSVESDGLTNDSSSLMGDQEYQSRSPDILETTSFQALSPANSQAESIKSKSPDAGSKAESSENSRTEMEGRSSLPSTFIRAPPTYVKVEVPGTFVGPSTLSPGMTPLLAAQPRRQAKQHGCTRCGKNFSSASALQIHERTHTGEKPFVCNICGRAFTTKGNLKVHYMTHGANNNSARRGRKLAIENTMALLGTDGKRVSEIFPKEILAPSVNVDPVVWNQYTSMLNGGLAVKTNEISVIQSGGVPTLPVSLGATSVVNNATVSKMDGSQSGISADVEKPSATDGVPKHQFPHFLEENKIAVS
# Setting: 8-mer, flanks averaged, mean of replicates
Strand,E-score
ACACATCT,0.145
ACCGGATC,-0.224
AACACCAG,-0.108
AGTAGAAT,0.226
AACAATGC,0.14
ACTAGAGA,-0.000145
GCTGATAC,0.00887
ACATCTCA,0.172
ACTGGCAC,-0.254
AGGCCAAT,0.0362
GGGCCGAA,-0.312
AGGTCCTC,-0.164
AAATTTGT,0.318
TCGTACCA,0.0182
ACGGCCAC,-0.159
AAAACGGG,-0.0735

# For quick reference, copied from above (study 1):
Strand,bound/input enrichment
UUAAUCCCCUUUACUGCUCCACCACUGCUCAUGGUAAUAACAAAGUCUUAUAUCCCCGUCCUAGCUUUUACUCAGAUGGCUUAUGGAGCCGGUUUCCUAGCUUUCUUGGGAGGGAUCAGA,0.571 ratio
AGUGUGCAGGAAUUCAUGACCUUUACAAGUCAACUGAUUGUGGAACGCUCAUCGAAAGGCAGCAGAGCUUCUGUCAAAGAACAAGAGUAUCUGUGCCAUGUCUACGUCCGGAGCGACAGU,0.0611 ratio
UCUUAACUUAUUCAUUUAACUUAUUUUUAGCACUUAGUAAAUAUUGUUAGUCUUAGACAAUAGCUCACAUUUUUUGAGAAGCAUGCCCUCCCUAUCCAUUUGUCUUAUAACAUGACCCAG,263 ratio
UUGAAAACUGAUUCAAGUAAGUUUGAGUAUCACAAUGUUAGCUUUCUAAUUCCAUAAAAGUACUUGGUUUUUACAGUAACCCCACAUACAUCACCCCAGCGCCAUUUGUAAAGAGCAACU,0.837 ratio
AAUUUCCGCAACUGUUUUUUAGACAUUCACAUCAGACUUACAGAGCAUUGGGCCUCUUUCUAGGUUUGUGUUAUUUCUCAGCUAUGGAUAUGAUCAAAUGAGAACACUGCUUAACUAAUG,0.296 ratio
